# Assay results from different studies.
# A part holds a random share of what one study measured.

# Series 1 — method: aptamer microarray, sandwich; form: DNA with 2'F-ANA; medium: in vitro; tested at: 200 nM; added: Cy3 exosite-II aptamer, 400 nM; direction: higher = stronger binding; strand: GGTTGGTGTGGTTGG
# Target: Prothrombin, mature alpha-thrombin (F2, Homo sapiens, UniProt P00734)
# Setting: whole 15-mer aptamer, many near background
Modification,mean fluorescence intensity [a.u.]
2'F-ANA at 2 4 7 9 10,94.3
2'F-ANA at 1 3 5 8 9 10 11 12 13,50
2'F-ANA at 3 5 6 8 11 12 14,60.1
2'F-ANA at 3 10 11 12 13,613
2'F-ANA at 6 7 8 10 12 13 14,107
2'F-ANA at 5 7 9 11 12,141
2'F-ANA at 3 4 9 10 11 13 15,234
2'F-ANA at 2 7 11 15,461
2'F-ANA at 1 5 8 9 12,136
2'F-ANA at 3 5 6 9 13,71.8
2'F-ANA at 1 3 7 8 9 10 11 12 15,110
2'F-ANA at 2 9 10 12 14,90.6
2'F-ANA at 3 4 6 8 9 10 12 13 14 15,148
2'F-ANA at 1 3 5 10 13 14,47.8
2'F-ANA at 4 8 13,254
2'F-ANA at 1 2 3 4 6 8 9 10 12 13 14,55.8
2'F-ANA at 2 5 7 8 10 11 13 14,104
2'F-ANA at 1 4 5 7 9 14,39.9
2'F-ANA at 2 4 5 6 7 9 10 11,48.7
2'F-ANA at 4 6 7 10 14 15,55.6

# Series 2 — method: RNA Bind-n-Seq; form: RNA; medium: in vitro; tested at: 365 nM; relative to: no-protein control; direction: higher = stronger binding
# Target: RNA binding protein fox-1 homolog 2, RRM domain, GST-SBP tag (RBFOX2, Homo sapiens, UniProt O43251-10, residues 100-194)
# Setting: natural RNA segment, single round, ends assumed
# Target sequence (chain): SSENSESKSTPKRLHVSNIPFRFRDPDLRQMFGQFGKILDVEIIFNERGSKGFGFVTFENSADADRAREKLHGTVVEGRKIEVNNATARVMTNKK
Strand,RBNS enrichment (R)
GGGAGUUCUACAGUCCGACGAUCAACAACCUUGACUUCCAUGGAGGAAGUGCUGGCCCCAAGGGGUCUGACACAAAGACGGGAAACCCAGUCGGCCUCUAGUUUUCUGCUGCUCUCAGGCAGCACAUCUUGCAUGGAAUUCUCGGGUGCCAA,2.06
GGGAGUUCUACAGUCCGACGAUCUCCUGACUGUUUAGUAAGAGCAUGCUUACACCCUACUGUGAAAAGGGGAGGGGAUGUGGUAAGCGGAAACAGAAGACAGGCAGCAGAGGCAUUAAAAAUGCAUACCAUGCUGGAAUUCUCGGGUGCCAA,0.957
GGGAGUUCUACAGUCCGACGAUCACCCUGUUAUGCCUUUCUCAGGCUCAUGAUAAAUGUAUUAGUCUGUUCUCAUGCUGCUAUUAAAGACAUACCUGACACUGGGUAAUUUAUAAAGGAAAGAGGUUUAAUGGUGGAAUUCUCGGGUGCCAA,0.825
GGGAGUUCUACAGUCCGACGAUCACAGAGCUACCUUUUGGGAUGAUUGCUUGAUUGUUUUUUUAUCUGAGAAUUCUAGAUAGAUAGCUAAUCUGCUUUUAAUCAUGACAUUUUAAUCUACCUCUGUCUCUUUAUGGAAUUCUCGGGUGCCAA,0.397
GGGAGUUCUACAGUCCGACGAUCAAGGUUCUCAUUUCUCAGGUGGUGGGACUAGACAGAGGGAGUGGCAAGCUCAGGGAAGGAUCAUUUCUGGUGAUAAUUCCAUUCACUUUGCACUUUGAUGGGCAUUAAAAUGGAAUUCUCGGGUGCCAA,0.457
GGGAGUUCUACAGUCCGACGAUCAAGUAUUGUACCUUCAGCGUGCAGUAUCUGUGAACUGAUUUCUCCAAGUGUGAGCUUUCUGAGCAAGGGGAUUUUUUUGCUUCAGAGAAGUAAGUGUCUGUCCGUUUUCAUGGAAUUCUCGGGUGCCAA,0.426
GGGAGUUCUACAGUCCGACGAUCCCGGCCCGGCCCCGAGAGCAGGCUCGACCGCCGCCCCAUGGACCCCUCGCCCAGGCCGGGGCUGGAGGGAUUCGGCCGCGGCUCCGGUCCUGGGCGCUUCCCUUUUAAGCUGGAAUUCUCGGGUGCCAA,0.568
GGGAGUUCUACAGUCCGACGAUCCUGCUGCAGUUUUUUGACUCCUGUCUGGUGGAACAUCCUGGAUUUCUUGGAUUUUUAGGUGUAAUUUGCCAAGGUCUUGGAAUCUUUUUCCCAAGAGCAUGAUAGAAAGAUGGAAUUCUCGGGUGCCAA,3.03
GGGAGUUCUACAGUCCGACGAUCUCCCUCCCUACACACCCAGUGCGCUGUGGUUACAGACCGUGGGCUCCCUGAGUUCUGCCGGUGAGCUGCCGUCACUGGGAUGCGCCAAGGACCUUUCCUCCCCGGUCUCAUGGAAUUCUCGGGUGCCAA,0.375
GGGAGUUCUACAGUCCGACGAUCUGAGGGUGUGGCCAGUUCCCUGGUUCUGUGCCAUGCUGCUGCUUGGUGGCAUUGGUUAGGAAUGGGACACACGCCCCUUGUUGUGAAGUUUACAUGUGACCUUCUUAUAGUGGAAUUCUCGGGUGCCAA,0.19
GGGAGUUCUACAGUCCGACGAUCUUUGGGCAGCUGCUCAUCAUUGAGGAAGUGGCAGGACUUGGAGGAAGUUAUGUGUGAAUGUUGUCAAGUCCUGAAGUCCUAUGAUGCACUGUGGCCCUAGAAAACGAAGAUGGAAUUCUCGGGUGCCAA,9.42
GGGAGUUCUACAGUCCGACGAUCCCAGUGAGUGAGCAAACCACUUUAGGCCAGGAGAAUUACAUAUUCUCUAGAGGCCAAGCAUCUGAUGAAAAGAGCCUGCCUAGAGAUUUUAUUCCGGCAGCACAUAAACAUGGAAUUCUCGGGUGCCAA,0.495

# Series 3 — method: protein-binding microarray; form: double-stranded DNA, one strand shown; medium: in vitro; tested at: 0.8 µM; setting: whole 60-bp probe, no competitor; direction: higher = stronger binding
# Target: Centromere-binding protein 1, full length, N-terminal tag (CBF1, Saccharomyces cerevisiae, UniProt P17106, residues 1-351)
# Chain of UniProt P17106 (whole entry, looked up): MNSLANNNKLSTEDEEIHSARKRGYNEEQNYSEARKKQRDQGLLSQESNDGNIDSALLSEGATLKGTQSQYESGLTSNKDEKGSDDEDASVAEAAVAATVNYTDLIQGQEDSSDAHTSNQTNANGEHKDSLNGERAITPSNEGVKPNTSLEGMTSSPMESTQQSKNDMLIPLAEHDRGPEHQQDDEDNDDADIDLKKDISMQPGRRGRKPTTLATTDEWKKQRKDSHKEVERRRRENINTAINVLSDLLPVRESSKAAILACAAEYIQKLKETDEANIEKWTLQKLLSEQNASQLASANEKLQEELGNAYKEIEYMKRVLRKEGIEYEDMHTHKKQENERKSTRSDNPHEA
Strand,fluorescence intensity
CCTAACTACTATAACCTCGTGTTATAGCTTCGTACAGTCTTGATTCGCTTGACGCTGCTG,588 a.u.
CTAAAAAAGAAACGTGATGTGAAAATGTGTTCATTCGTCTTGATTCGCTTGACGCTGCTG,2970 a.u.
CCTAACTACTATAAACACATGAAATAGCTTCGTACAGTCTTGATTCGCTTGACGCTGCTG,519 a.u.
CTACCCCAGTTACACGTGGGGACAATGGCGCTCTTCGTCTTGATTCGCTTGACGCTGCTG,1830 a.u.
GAAAAATTAAAGAAGCACGTTTCCGTTTTTTATTAGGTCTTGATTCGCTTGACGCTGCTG,859 a.u.
TGTACGAAGCTATCACACACGCATATAGTAGTTAGGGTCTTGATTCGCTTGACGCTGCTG,554 a.u.
CTAGTTTAAGTCTACATCAGGATCACCTGCAATTTCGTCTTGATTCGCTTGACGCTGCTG,1130 a.u.
CTACTGTAAAAACCTCTCACATGTTTTTCTCTGTTCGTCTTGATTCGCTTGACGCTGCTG,810 a.u.
CTAGCTTAATGGAATAACGTGATTTTTGTACCATTCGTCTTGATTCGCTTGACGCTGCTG,1430 a.u.
CTAGAACTCGCTGGTGATGACATGCCGAAATTATTCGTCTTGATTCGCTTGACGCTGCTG,553 a.u.
GAATTCGACTTGGGTGGTGGTACTTTCGATGTCTAGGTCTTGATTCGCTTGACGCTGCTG,519 a.u.
GAATAACTCATCTTGCACATGCTATTCTTTTCGTAGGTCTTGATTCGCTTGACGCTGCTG,715 a.u.
CTACTCTTCAGCTATCACAAGTCATTAGATTCTTTCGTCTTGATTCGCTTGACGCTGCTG,644 a.u.
GAAGCATTTGATGGCCGTCACATGGTACGCCACTAGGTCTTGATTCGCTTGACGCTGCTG,3750 a.u.
CTATATGAGCGAGGAAACGTGATTGAGAGTTATTTCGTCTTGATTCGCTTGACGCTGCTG,1150 a.u.
GAAATCACTTATCACGTTGTGGTGACAACGGCGTAGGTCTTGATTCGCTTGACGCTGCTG,2250 a.u.
CTAGAAGAAGGAAAAAAGGTGGCGTCGAAGACTTTCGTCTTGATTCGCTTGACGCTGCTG,494 a.u.

# Series 4 — method: RNA Bind-n-Seq; form: RNA; medium: in vitro; tested at: 100 nM; relative to: input RNA pool; direction: higher = stronger binding
# Target: RING finger protein unkempt homolog, zinc fingers 1-6, SBP tag (UNK, Homo sapiens, UniProt Q9C0B0, residues 30-357)
# Chain of UniProt Q9C0B0 (30-357, looked up): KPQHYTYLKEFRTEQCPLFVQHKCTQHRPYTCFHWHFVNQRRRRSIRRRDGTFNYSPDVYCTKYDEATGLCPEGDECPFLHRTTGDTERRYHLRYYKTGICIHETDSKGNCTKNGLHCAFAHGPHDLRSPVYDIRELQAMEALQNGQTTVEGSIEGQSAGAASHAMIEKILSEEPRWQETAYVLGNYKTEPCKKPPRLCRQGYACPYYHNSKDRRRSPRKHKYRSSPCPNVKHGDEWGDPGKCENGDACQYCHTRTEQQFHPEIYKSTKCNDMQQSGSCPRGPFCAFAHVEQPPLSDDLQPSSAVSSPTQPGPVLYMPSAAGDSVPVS
# Setting: RNA with constant flanks, vertebrate orthologous sites, ends assumed
Strand,bound/input enrichment [ratio]
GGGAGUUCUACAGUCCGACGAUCUAAGUAAAAUAUUGGAUGCAACAUAUAAAUGAUCUAAGGCAGUGAUUUCAGCUUUAGAUGUUAGUUUUAAGGUUAUUUACGUUUAUUUAAACUUUUGGAUUGGAUUAUUUGCUAUUGCUUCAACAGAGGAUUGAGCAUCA,0.411
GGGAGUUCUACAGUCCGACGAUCAGUAACCCAAGGAUUCAGGACUGGUUUUACAAAUAUGCCAAGUAGAUACGGAGCUAACAAUAGAACUGGACAACCAAGACCAUGAUGUACUGCAAUCUAACUUAUUUUUAUGAGGAACAUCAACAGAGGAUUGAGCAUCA,0.548
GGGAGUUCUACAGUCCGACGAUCACAUAGACUCAUCGGAAAUUGCUCUGAGGUUCCUGAAGUCAUUACACAGGCUUCCACCUAAGUAUAGUGUUUUGUUUUGUUUUAACUUGGGUACUGUUUCCACAGUUAAUGUUUUUAAAACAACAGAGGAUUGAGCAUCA,0.517
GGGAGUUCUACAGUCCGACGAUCACUUAAAAUGUACUUAGUUAUAGUUAAUGACCGCAUUCCUGAGUUCCUUUUUCAUUAAUGUAGAUUUCCAUUCCUAUUAUUGCACUUUUAAUAAUAUGAAUAAAUAGAAGGUUUGUGCCACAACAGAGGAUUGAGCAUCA,0.739
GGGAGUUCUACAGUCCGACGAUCUUACACGUAAACUGGUAUUUUCAAACAAUAGGAAACUAUUUUUUUCUUUUUUACAGUUUAUUAUGUAUCUGGCUUGUACACGGAAGACUAAGAAGUUGAUUUGCUAAGUGUGGUCUUUGCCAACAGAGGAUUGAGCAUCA,0.365
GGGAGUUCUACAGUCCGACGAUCGGUGGUAGGACCCAGGCCCUGCCACUCAGUGGCCUGCUGGCUACCUUAGCCAGGCUGUUUUAGUUCCAUAUUUUUUUAUUUUAACAUUGCCCUUACUUCCUGUACUUCAGUCUCAGAUUUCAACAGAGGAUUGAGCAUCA,2.28
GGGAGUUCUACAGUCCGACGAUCCACAUCUGGUGAUAUUUGGCCUGGCCUUUCUGCUUAUGAUAAUAGUCCCAGAUCACCCCAUAGUCCUUCACCUAUUGCUACACCACCUAGUCAGAGUUCAUCAUGCUCUGAUGCCCCCAUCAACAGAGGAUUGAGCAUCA,0.993
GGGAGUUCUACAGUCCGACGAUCAAUGGCUUUUGCUUCAUGAAGAAGAGUAAAAAAUAGUCCCCUCAAUUUAAAAUGCCUAAUAGCUAUUUUAAAAAUUAAAAUGUUUAAAUGUGUAAAUCACAUCACCUGAUGUGAUUUACACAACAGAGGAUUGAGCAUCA,0.829
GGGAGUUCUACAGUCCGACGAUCGGGAUAUAUUGAAUAGUAUUAAACAUUUUCGUCUUCCUUUACCUUUUAUCCCUUAAUAUCUAGUCUACUUUUUUAAAUUUCAGACUUCAAUGCUCUUUGAAUUGAUAAUUCCAAUUUUCACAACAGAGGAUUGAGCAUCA,0.872
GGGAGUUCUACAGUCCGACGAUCGACCUCCUAAACUUCUAGCUUUCCAGCGGUAGCUGUUUUAGAUACUGAUUUUCUUUUCUUUGGAGUUUUUUCCUGUUCCCUGCCUUCUCUUCCCCUGUUCCCACAGUUUGACUUCUGGAUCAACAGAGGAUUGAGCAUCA,1.63
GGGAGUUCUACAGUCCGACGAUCAGUUUUGGAUGCAGUGUAUAAAUUAUCCAAGGCAGUGACUUCAGCGUUAGAGAUAUUGUUAGCUUUAAAGUCGUCUACGUUUCUUUAAACGUCUUCAUUGGGUUGUUUGCUGCUGUUCUUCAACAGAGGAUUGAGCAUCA,0.492

# Excerpt of the above (series 1):
Modification,mean fluorescence intensity [a.u.]
2'F-ANA at 1 5 8 9 12,136
2'F-ANA at 3 5 6 9 13,71.8
2'F-ANA at 1 3 7 8 9 10 11 12 15,110
2'F-ANA at 2 9 10 12 14,90.6
2'F-ANA at 3 4 6 8 9 10 12 13 14 15,148
2'F-ANA at 1 3 5 10 13 14,47.8
